Results collected from several papers.
Each line is one published result; not all experiments were run side by side.

`CC[C@H](C)[C@@H]1NC(=O)[C@H](CCCNC(=N)N)NC(=O)[C@H](CC(=O)O)NC(=O)[C@H](CC(C)C)NC(=O)[C@H](CCCCN)NC(=O)[C@H](CC(C)C)NC(=O)CNC(=O)[C@H](Cc2ccccc2)NC(=O)[C@@H](NC(=O)CNC(=O)[C@H](CCCCN)NC(=O)[C@H](CO)NC(=O)[C@H](CC(C)C)NC(=O)CNC(=O)[C@H](CCCCN)NC(=O)[C@H](CCCCN)NC(=O)[C@H](CCC(N)=O)NC(=O)[C@H](C)NC(=O)CNC(=O)[C@H](CCCCN)NC(=O)[C@H](Cc2ccc(O)cc2)NC(=O)[C@H](CCCCN)NC(=O)[C@H](CCCNC(=N)N)NC(=O)[C@H](C)NC(=O)[C@H](CCC(N)=O)NC(=O)[C@@H]2CCCN2C(=O)[C@H](Cc2c[nH]cn2)NC(=O)[C@H](CCC(=O)O)NC(=O)[C@H](CCC(N)=O)NC(=O)[C@@H](N)CC(C)C)CSSC[C@@H](C(=O)O)NC(=O)CNC(=O)[C@H](CC(C)C)NC(=O)CNC(=O)[C@H](CO)NC(=O)[C@H](CCSC)NC(=O)[C@H](CO)NC(=O)CNC1=O` gave a degradation half-life of about 5 months (pH 7.4, 37 °C).
With `N=C(N)NCCC[C@H](NC(=O)CNC(=O)[C@@H](N)Cc1c[nH]c2ccccc12)C(=O)N1CCC[C@H]1C(=O)O` the degradation was 2.33% (HPLC; solution; 1 mg/mL, 60 days, 25 °C).
With `COC(=O)CCC(C)C1CCC2C3C(O)CC4CC(OC(=O)CCC(=O)OC5OC6OC7(C)CCC8C(C)CCC(C5C)C68OO7)CCC4(C)C3CCC12C` (stereo not drawn) the degradation was at most 80% (HPLC-MS; cell culture medium; 24 h, 37 °C).
For `CC[C@H](C)[C@@H]1NC(=O)[C@H](CC(N)=O)NC(=O)[C@@H]2CCCN2C(=O)[C@@H](NC(=O)[C@H](CC(N)=O)NC(=O)[C@@H](N)CCC(N)=O)COC(=O)[C@H](CCSC)NC(=O)[C@H](Cc2c[nH]c3ccccc23)NC(=O)[C@H](CCC(N)=O)NC(=O)CNC(=O)[C@H](Cc2ccccc2)NC1=O`, the degradation was about 6% (PBS; 24 h, pH 7.2, 25 °C).
For `CSCC[C@H](NC(=O)CNC(=O)[C@H](CC(=O)O)NC(=O)[C@@H](NC(=O)[C@@H](NC(=O)[C@@H](NC(=O)CNC(=O)[C@H](CCC(=O)O)NC(=O)[C@H](CCSC)NC(=O)[C@H](CC(=O)O)NC(=O)[C@H](C)NC(=O)[C@H](C)NC(=O)[C@@H](NC(=O)[C@H](CO)NC(=O)[C@@H](N)CC(C)C)[C@@H](C)O)C(C)C)C(C)C)[C@@H](C)O)C(=O)N[C@@H](C)C(=O)N[C@@H](CO)C(=O)NCC(=O)N[C@@H](CC(C)C)C(=O)N[C@@H](CC(=O)O)C(=O)N[C@@H](CCCCN)C(=O)N[C@@H](CC(=O)O)C(=O)N[C@@H](Cc1ccc(O)cc1)C(=O)N[C@@H](CC(C)C)C(=O)N[C@@H](CCCCN)C(=O)N1CCC[C@H]1C(=O)N[C@@H](CC(=O)O)C(=O)N[C@@H](CC(=O)O)C(=O)O`, the degradation was 32 to 34% (mouse serum; 10 µg/mL, 24 h, 37 °C).
The degradation time of `CC(C)C12OC1C1OC13C1(C)CCC4=C(COC4=O)C1CC1OC13C2OC(=O)CCC(=O)OC1OC(CO)C(O)C(O)C1O` (stereo not drawn) is reported as at most 4 h (item: triptolide succinate; 10% human serum in DMEM; 10 µM, room temperature).
`CSCC[C@H](NC(=O)[C@H](CC(C)C)NC(=O)CNC(=O)[C@H](Cc1ccccc1)NC(=O)[C@H](Cc1ccccc1)NC(=O)[C@H](CCC(N)=O)NC(=O)[C@H](CCC(N)=O)NC(=O)[C@@H]1CCCN1C(=O)[C@H](CCCCN)NC(=O)[C@@H]1CCCN1C(=O)[C@@H](N)CCCN=C(N)N)C(N)=O` has a degradation time of at most 0.5 h (HPLC; rat mast cell suspension).
For `CC(C)C[C@H](NC(=O)[C@H](Cc1ccccc1)NC(=O)CNC(=O)CNC(=O)[C@@H](N)Cc1ccc(O)cc1)C(=O)N[C@@H](CSCB(O)O)C(N)=O`, the degradation was 32% (PBS; 24 h, pH 7.4, together with: H2O2 100 µM).
With `Cc1cc2c(C(=O)Cc3ccccc3)c(O)c(O)cc2c(O)c1-c1c(C)cc2c(C(=O)Cc3ccccc3)c(O)c(O)cc2c1O` the degradation was 15% (rat plasma; 1 h).

Excerpt of the above:
For `CC(C)C[C@H](NC(=O)[C@H](Cc1ccccc1)NC(=O)CNC(=O)CNC(=O)[C@@H](N)Cc1ccc(O)cc1)C(=O)N[C@@H](CSCB(O)O)C(N)=O`, the degradation was 32% (PBS; 24 h, pH 7.4, together with: H2O2 100 µM).
